Published values gathered from unrelated publications.
Every numbered part comes from another study and shows a few of its results, in no order.

Set 1
Target: Prothrombin, mature alpha-thrombin (F2, Homo sapiens, UniProt P00734)
Technique: aptamer microarray, sandwich
Form: DNA with 2'F-ANA
Matrix: in vitro
Tested at: 200 nM
Notes: whole 15-mer aptamer, many near background
Together with: Cy3 exosite-II aptamer, 400 nM
Reading: higher = stronger binding
Oligonucleotide: GGTTGGTGTGGTTGG
For `2'F-ANA at 1 3 5 6 7 10 11 12 13 14`, “mean fluorescence intensity” read 48.6 a.u.
For `2'F-ANA at 1 2 3 4 5 6 9 10 11 13 14`, “mean fluorescence intensity” read 49.9 a.u.
For `2'F-ANA at 1 2 3 8 11 12 13`, “mean fluorescence intensity” read 353 a.u.
`2'F-ANA at 1 2 3 4 6 7 9 13 14` — result for “mean fluorescence intensity”: 53.3 a.u.
`2'F-ANA at 2 3 4 9 10 12` — result for “mean fluorescence intensity”: 345 a.u.
`2'F-ANA at 1 2 3 5 6 7 8 11 13 14 15` — result for “mean fluorescence intensity”: 45.5 a.u.
`2'F-ANA at 1 2 5 8 9 13 15` — result for “mean fluorescence intensity”: 49.3 a.u.
`2'F-ANA at 1 2 4 6 7 8 9 10 11 13 14 15`: “mean fluorescence intensity” 50.5 a.u.
`2'F-ANA at 1 3 7 8 9 11 13 15`: “mean fluorescence intensity” 284 a.u.
Under “mean fluorescence intensity”, `2'F-ANA at 3 4 6 9 12 14` is recorded as 308 a.u.
Under “mean fluorescence intensity”, `2'F-ANA at 1 8 9 10 12` is recorded as 78.7 a.u.
`2'F-ANA at 1 2 3 4 5 8 10 11 12 13 14`: “mean fluorescence intensity” 50.2 a.u.
For `2'F-ANA at 1 2 4 7 8 9 10`, “mean fluorescence intensity” read 53.1 a.u.
`2'F-ANA at 2 3 6 7 8 12 14` — result for “mean fluorescence intensity”: 444 a.u.
`2'F-ANA at 1 2 3 7 8 9 10 14 15` — result for “mean fluorescence intensity”: 56.2 a.u.
`2'F-ANA at 1 4 12 15`: “mean fluorescence intensity” 370 a.u.
`2'F-ANA at 1 2 3 11`: “mean fluorescence intensity” 218 a.u.
`2'F-ANA at 1 2 3 4 7 8 9 10 14`: “mean fluorescence intensity” 72.2 a.u.
`2'F-ANA at 1 4 5 10 12 15`: “mean fluorescence intensity” 47.7 a.u.

Set 2
Target: RNA binding protein fox-1 homolog 2, RRM domain, GST-SBP tag (RBFOX2, Homo sapiens, UniProt O43251-10, residues 100-194)
Technique: RNA Bind-n-Seq
Form: RNA
Matrix: in vitro
Tested at: 365 nM
Notes: natural RNA segment, single round, ends assumed
Reference: no-protein control
Reading: higher = stronger binding
All sequences stand within: GGGAGUUCUACAGUCCGACGAUC … UGGAAUUCUCGGGUGCCAA
Under “RBNS enrichment (R)”, `AUCAGCACUGUGAAAAUGAACCUAUACAGUAAAUUGGUACCAGUAGAGUGGGGCGCUGCUGUAAAUACCCAAAAAUGUGGAAGCAACUUUGGAACUGGGUAACAGGCAGA` is recorded as 0.763.
`AAUAGGAAUUGAUAAUAGCAGUCUUAAACAUUAGUAGUGGGAUUUGGCUAUGGUCCAGACUGUGCUCCUUAUAGAGAAUUUGAUCUGCUCAGUGUGAGCGGUUUGCUGUU`: “RBNS enrichment (R)” 3.31.
`UGGAAAAGGACUUUUUUCUUCACCUUCCUCUUUGCCUCAUGUGUACACACACACACACAUCUUGUACCCCAGACCUCUGGGUAUAAUUUUCAUAAUUGGUGCAGAAAGAA` — result for “RBNS enrichment (R)”: 0.742.
For `AUUUUUAGUCAAAAGUGCUUGGAAUAAUGGAAUGGUUAGCAUUCUUUGAAAGAGUAUCUAAAAAGUUUAUAAAUAUUUGAACUAUCACACAAAGGUUGAUCUCUAAAAAA`, “RBNS enrichment (R)” read 0.536.
Under “RBNS enrichment (R)”, `CCUACCUGCUUACCCCACUCCCUCACCUUCCUCCUUCCCUUCUGCCCUCCAUCCACCUGCCUUAACUAAUUGGGGCUGGAGUUGGUCAUUUUUGUACACCCACAGUGGUA` is recorded as 1.05.
`UCAUCUGGGCAGCCAUUUUUCUUCUCUGCUUCUCUUGAGAUACAUAGUUAAAGUAGACACGGCCUCCCACGCGAGUGUGGUGGGACCUUGAGACUUAGGAGGAUUGCCUG` — result for “RBNS enrichment (R)”: 1.27.
`GAAUAUAUUUUUGUUAUGGCUGGUUACCCCAGCUCUUUUUCCCCUUGUGUGUGUGGUUCAAGUGUGCACUGGGAGGCAACUGAGGUCUGAAGCCAACCAUAUGCUCCUGC`: “RBNS enrichment (R)” 0.413.
For `UAGUCCCUUCUGUUUUAAAGGAGGCAUUUUGGAUAUUAAGCAACUUAAUUUGAAAGAACUUCUUUUGGUGGACUACCAGAGAUUAUUAUUUUGAUAGUGGUAUUUAAAAG`, “RBNS enrichment (R)” read 0.415.

Set 3
Target: Ras GTPase-activating protein-binding protein 1, full length (G3BP1, Homo sapiens, UniProt Q13283)
Sequence of UniProt Q13283 (whole entry, looked up): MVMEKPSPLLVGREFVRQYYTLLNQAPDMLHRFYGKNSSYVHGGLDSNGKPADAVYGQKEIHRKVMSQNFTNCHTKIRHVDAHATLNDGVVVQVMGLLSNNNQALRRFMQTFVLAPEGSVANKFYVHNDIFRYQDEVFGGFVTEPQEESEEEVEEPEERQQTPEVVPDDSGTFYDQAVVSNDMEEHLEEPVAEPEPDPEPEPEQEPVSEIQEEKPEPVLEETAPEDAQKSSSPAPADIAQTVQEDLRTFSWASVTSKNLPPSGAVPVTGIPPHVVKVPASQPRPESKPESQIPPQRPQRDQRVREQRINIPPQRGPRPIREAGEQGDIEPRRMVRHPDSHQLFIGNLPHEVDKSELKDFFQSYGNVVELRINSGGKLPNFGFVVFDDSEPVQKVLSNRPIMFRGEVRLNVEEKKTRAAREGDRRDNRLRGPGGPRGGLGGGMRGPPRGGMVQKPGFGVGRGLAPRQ
Technique: RNA Bind-n-Seq
Form: RNA
Matrix: in vitro
Tested at: 200 nM
Notes: whole 134-nt RNA, ends assumed
Together with: 150 mM LiCl
Reference: input library
Reading: higher = stronger binding
Each molecule: 7-deaza-guanosine replaces G
All sequences stand within: GGGAGUUCUACAGUCCGACGAUC … UGGAAUUCUCGGGUGUCAAGG
The log2 enrichment of `UCCUGUGCUACACAUCGUAUGUACCGAAUCGGCCCCCCGGGGCCCCCCGGCCCCCCGGGAAAGUAUUAUGUUACGCCGUUCGGAUCUGCA` is reported as -1.92.
With `UCAAGUCCUGUGCUACACAUCGUAUGUACCGAAUCGGAAAGGUUUGGAAAAAGGAAAGUAUUAUGUUACGCCGUUCGGAUCUGCACUUCC` the log2 enrichment was -0.558.
`ACCAUGCAGGUGGAAAUCUUUGGGAAGUGGGGCAAGGGGGGGAUAGGGAGGGGGGUAACACUUUGGGAACAGGUGGUCCCAGGUCGUUUC` has a log2 enrichment of 0.256.
`GUCCUGUGCUACACAUCGUAUGUACCGAAUCGGGAAAAAAAGGGUUUUUGGGUUUGGGAAAGUAUUAUGUUACGCCGUUCGGAUCUGCAC` has a log2 enrichment of -2.28.
The log2 enrichment of `UCCUGUGCUACACAUCGUAUGUACCGAAUCGGGCCCCCCGGGGCCCCCCGGGCCCCCCGGAAAGUAUUAUGUUACGCCGUUCGGAUCUGC` is reported as -1.33.
The log2 enrichment of `UCCUGUGCUACACAUCGUAUGUACCGAAUCGGGAAAAAAAGGGUUUUUUUGGGAAAGGGAAAGUAUUAUGUUACGCCGUUCGGAUCUGCA` is reported as -1.43.
`GUCCUGUGCUACACAUCGUAUGUACCGAAUCGGGGAAAGGGGUUUUUGGGGAAAGGGGAAAGUAUUAUGUUACGCCGUUCGGAUCUGCAC` has a log2 enrichment of -0.0558.
With `CAAGUCCUGUGCUACACAUCGUAUGUACCGAAUCGGGCCCCGGCCCCGGCCCCGGAAAGUAUUAUGUUACGCCGUUCGGAUCUGCACUUC` the log2 enrichment was -0.985.

Set 4
Target: TAR DNA-binding protein 43, full length, His tag (TARDBP, Homo sapiens, UniProt Q13148, residues 1-414)
Technique: RNA Bind-n-Seq
Form: RNA
Matrix: in vitro
Tested at: 20 nM
Notes: 6-mer, flanks averaged, single round
Together with: 150 mM KCl
Reference: input library
Reading: higher = stronger binding
Under “6-mer enrichment (R)”, `ACCCGU` is recorded as 0.646.
Under “6-mer enrichment (R)”, `UACGUC` is recorded as 0.609.
For `ACAAGG`, “6-mer enrichment (R)” read 1.17.
`CAUAUG` — result for “6-mer enrichment (R)”: 0.671.
Under “6-mer enrichment (R)”, `AAAGGC` is recorded as 0.766.
For `AUUACA`, “6-mer enrichment (R)” read 0.603.
For `UCGCCA`, “6-mer enrichment (R)” read 0.644.
`UAUUGG` — result for “6-mer enrichment (R)”: 0.876.
`AUUCUU`: “6-mer enrichment (R)” 0.563.
`AGUCAC`: “6-mer enrichment (R)” 0.634.
`GUACAA` — result for “6-mer enrichment (R)”: 0.712.
Under “6-mer enrichment (R)”, `CAAUUG` is recorded as 0.667.
`CAAAUA`: “6-mer enrichment (R)” 0.659.
`CAGGUC`: “6-mer enrichment (R)” 0.776.
Under “6-mer enrichment (R)”, `AUUCCC` is recorded as 0.574.
For `CUCUAA`, “6-mer enrichment (R)” read 0.589.
Under “6-mer enrichment (R)”, `AGCUAC` is recorded as 0.636.
For `CAGUCG`, “6-mer enrichment (R)” read 0.833.
For `ACCGCA`, “6-mer enrichment (R)” read 0.686.
`UCAAUU`: “6-mer enrichment (R)” 0.595.
For `GGGUUU`, “6-mer enrichment (R)” read 1.56.
Under “6-mer enrichment (R)”, `GUGCGA` is recorded as 1.51.
`UGAAAA` — result for “6-mer enrichment (R)”: 0.663.
`CAGGAU`: “6-mer enrichment (R)” 0.807.

For quick reference, copied from above (set 4):
For `CAGUCG`, “6-mer enrichment (R)” read 0.833.
For `ACCGCA`, “6-mer enrichment (R)” read 0.686.
`UCAAUU`: “6-mer enrichment (R)” 0.595.
For `GGGUUU`, “6-mer enrichment (R)” read 1.56.
Under “6-mer enrichment (R)”, `GUGCGA` is recorded as 1.51.
`UGAAAA` — result for “6-mer enrichment (R)”: 0.663.
`CAGGAU`: “6-mer enrichment (R)” 0.807.
